Published values from different studies.
Lines come from different studies, so protocols differ.
Cell line: MCF7
Effect on: cell growth or viability

CC(C)OC(=O)C(n1cccn1)n1cccn1.F[P-](F)(F)(F)(F)F.[Cu+].c1ccc(P(c2ccccc2)c2ccccc2)cc1  IC50 (MTT; 72 h): 6.7 µM
COC(=O)C1CN1S(=O)(=O)c1ccc(C)cc1 (stereo not shown)  IC50 (MTT; 48 h): 30 µM
COc1ccc(C(c2c(C)nn(-c3ccccc3)c2O)c2c(C)nn(-c3ccccc3)c2O)cc1  IC50 (MTT; 48 h): 12.5 µM
C[C@H](N)[C@@H](CCCCCCCCCCCCCCC(=O)CCCCCCC[C@@H](O)[C@@H](C)N)O[C@@H]1O[C@H](CO)[C@H](O)[C@H](O)[C@H]1O  IC50 (resazurin; 96 h): 6.91 µM
CC(C)C[C@H](NC(=O)[C@H](C)NC(=O)[C@H](CCCCN)NC(=O)[C@H](C)NC(=O)[C@H](C)NC(=O)CNC(=O)[C@H](CCCCN)NC(=O)[C@H](CC(C)C)NC(=O)[C@H](CC(C)C)NC(=O)[C@H](CC(=O)O)NC(=O)[C@H](CCCCN)NC(=O)[C@H](Cc1ccccc1)NC(=O)CN)C(=O)N[C@H](C(=O)N[C@@H](CCCCN)C(=O)N[C@H](C(=O)N[C@H](C(=O)N[C@@H](CC(C)C)C(=O)N[C@@H](Cc1ccccc1)C(N)=O)C(C)C)[C@@H](C)O)C(C)C  IC50 (CCK-8): 9.33 µM
CC(C)[C@H](NC(=O)[C@H](C(C)C)N(C)C)C(=O)N(C)[C@H](C(=O)N1CCC[C@H]1C(=O)N1CCC[C@H]1C(=O)NCc1ccccc1)C(C)C  IC50 (48 h): 0.00044 µM
C/C=C/C=C/C/C=C/CCCCCCCc1cccc(O)c1O  IC50 (MTT; 48 h): 3.42 mg/L
Cc1nn(-c2ccccc2)c(O)c1C(c1ccc([N+](=O)[O-])cc1)c1c(C)nn(-c2ccccc2)c1O  IC50 (MTT; 48 h): 35.6 µM
CO[C@@H]1[C@@H](O)[C@H](O[C@H]2CC[C@@]3(C)[C@H](CC[C@@H]4[C@@H]3CC[C@]3(C)[C@@H](C5=CC(=O)OC5)[C@@H](O)C[C@]43O)C2)O[C@H](C)[C@@H]1O[C@@H]1O[C@H](CO)[C@@H](O)[C@H](O)[C@H]1O  IC50 (MTT; 48 h): 1.38 µM
C=CC[P](c1ccccc1)(c1ccccc1)[Pt]([S]c1ccccn1)([S]c1ccccn1)[P](CC=C)(c1ccccc1)c1ccccc1  IC50 (MTT): 4.8 µM

Excerpt of the above:
COC(=O)C1CN1S(=O)(=O)c1ccc(C)cc1 (stereo not shown)  IC50 (MTT; 48 h): 30 µM
